# Published values of several laboratories.
Compound,cell line,read-out,method,time,GI50 [nM]
CSc1cc(C)[nH]c(=O)c1CNC(=O)c1cc(Cl)c2c(c1C)OC(C)(C1CCC(N(C)C)CC1)O2 (stereo not shown),KARPAS-422,cell growth or viability,,8 days,4
Cc1cc(=O)oc2cc(OCCCCCCSC#N)ccc12,SW1573,cell growth or viability,SRB,,2800
COc1ccc(NC(=O)c2ccc3[nH]c(-c4ccc(N(C)C)cc4)nc3c2)cn1,Y79,cell growth,CellTiter-Glo,,6890
COc1cccc(C(=O)Nc2ccc(Sc3ccc4c(/C=C/c5ccccn5)n[nH]c4c3)cc2)c1,Ba/F3 TEL-VEGFR3,cell growth,CCK-8,,> 10000
O=C(CCl)c1ccccc1Nc1cccc(C(F)(F)F)c1,NCI-H28,cell growth or viability,CCK-8,72 h,1910
Cc1cccc(NC(=O)CC(=O)Nc2ccc3[nH]nc(/C=C/c4ccccn4)c3c2)c1,Ba/F3 TEL-VEGFR2,cell growth,CCK-8,,180
Cc1c(Cl)c(=O)oc2cc(OCCCCCCSC#N)ccc12,SW1573,cell growth or viability,SRB,,13000
CCN(C(=O)c1cc(F)ccc1Oc1nncnc1N1CCC2(C1)CN([C@H](CCCN(C)CCOC)C(C)C)C2)C(C)C,PLC-PRF-5,cell growth or viability,,72 h,> 10000
O=C(Nc1ccc(Sc2ccc3c(/C=C/c4ccccn4)n[nH]c3c2)cc1)C1CCCN1 (stereo not shown),Ba/F3 TEL-VEGFR3,cell growth,CCK-8,,2190
CSc1cc(C)[nH]c(=O)c1CN1CCc2c(Cl)c3c(c(C)c2C1=O)OC(C)(C1CCC(N(C)C)CC1)O3 (stereo not shown),KARPAS-422,cell growth or viability,,8 days,4.8

# A few entries again:
Compound,cell line,read-out,method,time,GI50 [nM]
Cc1cccc(NC(=O)CC(=O)Nc2ccc3[nH]nc(/C=C/c4ccccn4)c3c2)c1,Ba/F3 TEL-VEGFR2,cell growth,CCK-8,,180
